# Measurements gathered from unrelated publications.
# Lines come from different studies, so protocols differ. Several values in a cell are separate wells, animals, samples, runs or records. ± gives the spread as reported.
Compound,tested on,assay,test system,conditions,how to read,measurement,result
Nc1ncnc2nc(-c3ccc(N4CCOCC4)nc3)cc(-c3cccc(Br)c3)c12,activated human T cells,,human,1 nM,,T cell proliferation,1.5% and 0.326% and 0.2%
C=Cc1c2[n-]c(c1C)/C=c1\[n-]/c(c(C)c1C=C)=C\c1[n-]c(c(CCC(=O)O)c1C)/C=c1\[n-]c(c(C)c1CCC(=O)O)=C2.[Sn+4],SH-SY5Y,"RNA-seq, refers to: HSPB7 mRNA",,"5 µM, 5 h",reference: untreated cells,fold change,1.53
Nc1ncnc2c1ncn2[C@@H]1O[C@H](CO)[C@@H](O)[C@H]1O,activated human T cells,refers to: hypoxanthine,,30 µM,reference: DMSO,log2 fold change,2.7 and 1.9
Cc1cc(Nc2ncc(Cl)c(Nc3ccccc3S(=O)(=O)C(C)C)n2)c(OC(C)C)cc1C1CCNCC1,CLB-GE,"phosphoproteomics LC-MS/MS, refers to: NEK9 phosphorylation",,"200 nM, 60 min",reference: untreated,log2 fold change,-1.67
Cn1cc(-c2ccc(-c3cncc(Cl)c3N3CCC4(CCNC4=O)CC3)cc2)cn1,COLO 205,"gene expression, microarray, refers to: MIA mRNA",,"concentration not given, 2 h",reference: untreated cells,log2 fold change,2.77
CC(C)C[C@H](NC(=O)C[C@H](O)[C@H](CC(C)C)NC(=O)[C@H](Cc1c[nH]cn1)NC(=O)CNC(=O)[C@@H](NC(=O)[C@H](C)NC(=O)[C@H](Cc1c[nH]c2ccccc12)NC(=O)[C@H](CCC(N)=O)NC(=O)[C@@H](Cc1ccccc1)NC(=O)COCCOCCNC(=O)CCC(C(=O)O)N1CCN(CC(=O)O)CCN(CC(=O)O)CCN(CC(=O)O)CC1)C(C)C)C(N)=O (stereo partly shown) [lutetium-177 labelled],,,"female BALB/c nu/nu mice, spleen","intravenous, 100 pmol, 24 h, added: PA 300 µg",,tissue uptake,0.03 ± 0.01 %ID/g
Cc1cc(Nc2ccc(S(F)(F)(F)(F)F)cc2)n2nc(C(C)(F)F)nc2n1,Plasmodium vivax,12-lead ECG,malaria patients,"oral, 400 mg, increase above 30 ms",,patients with QTcF increase,0%
Nc1ccccc1NC(=O)c1ccc(CNC(=O)OCc2cccnc2)cc1,A2780cisR,"flow cytometry, refers to: subG1 nuclei",,concentration not given,,apoptotic cells,~60%
CCn1cc(-c2cc(Cn3ccoc3=N)cc3c2CCN([C@@H](C)c2cc(OC)ccn2)C3=O)c(C(F)(F)F)n1,CAL-27,"cell growth, inhibitor",,120 h,,EC50,0.0372 µM
C/C=C/C/C=C/CCC(=O)[C@H]1O[C@H]1C(N)=O,"MDA-MB-231, BAX/BAK siRNA knockdown","cell viability, CellTiter-Glo",,,"reference: MDA-MB-231 minus MCF-10A average, direction not given",Z score difference,77.8
COc1ccc(C(=O)C2CCN(CC(=O)N(Cc3nc4c(c(=O)[nH]3)COCC4)CC3CC3)CC2)cc1,HEK293 STF,"TCF reporter gene, luciferase",,"2 µM, 24 h, added: 50% Wnt3a conditioned medium",,inhibition,inhibited
O=C(Nc1ccc(C2CCCCC2)cc1)c1cn[nH]c1,,,cryopreserved rat hepatocytes,1 µM,,hepatic clearance,46 mL/min/kg
COc1ccc(-n2nc(C(C)=O)s/c2=N\N=C(/C)c2ccc(NC(=O)c3ccc(Cl)cc3)cc2)cc1,HepG2,,,2.5 µM,,viability,5.86%
CCCCCN1C[C@H](O)[C@@H](O)[C@H](O)[C@@H]1CO,Sandhoff disease patient fibroblasts,"glycosphingolipid lowering, LC-MS/MS, refers to: GM3 d18:1/22:0",,,,IC50,0.794 µM
CCn1cc(-c2cc(Cn3ccnc3)cc3c2CCN([C@H](c2cc(OC)ccn2)C2CC2)C3=O)c(C(F)(F)F)n1,RMUGS,cell growth,,120 h,,EC50,> 30 µM
CC1(C)CCC(CN2CCN(c3ccc(C(=O)NS(=O)(=O)c4ccc(NCC5CCOCC5)c([N+](=O)[O-])c4)c(Oc4cnc5[nH]ccc5c4)c3)CC2)=C(c2ccc(Cl)cc2)C1,KCL-22,"annexin V/PI flow cytometry, refers to: annexin V-/PI-",,"3.2 µM, 24 h",,viable cells,79.9%
CCCCCCCCCCCCCCCCCCOc1ccc(CC(=O)OCC[N+](C)(C)C)cc1,NSCLC panel (nine cell lines),,,10 µM,,mean growth inhibition,5.31%
O=C(NCC1CCOCC1)c1ccc([C@H]2[C@@H](F)[C@@H](F)C[C@@H](F)[C@H]2F)cc1,,hepatocyte stability,cryopreserved mouse hepatocytes,1 µM,,hepatic clearance,31 mL/min/kg
CNC(=O)Nc1ccc(-c2nc(N3CC4CCC(C3)O4)c3cnn(C4CCC5(CC4)OCCO5)c3n2)cc1,SNU-1040,,,"330 nM, 3 days, 100% DMSO",reference: vehicle,cell growth,75.5%
Nc1cccc2c1C(=O)N(C1CCC(=O)NC1=O)C2=O (stereo not shown),RPMI-8226,"flow cytometry, refers to: CD275",,concentration not given,reference: comparator compound alone,surface marker level,155%
COc1cnc2cccc(N3CCc4c(cc(Cn5ccnc5C)cc4-c4cn(C)nc4C(F)(F)F)C3=O)c2c1,DLD-1,"cell growth, inhibitor",,120 h,,EC50,> 30 µM
Cc1nn(-c2nc3c(F)cc(F)cc3s2)c(O)c1C(c1ccc(C(F)(F)F)cc1)c1c(C)nn(-c2nc3c(F)cc(F)cc3s2)c1O,THP1-Dual,"IRF3 phosphorylation, inhibitor, Western blot densitometry",,"20 µM, added: HT-DNA",,phospho-IRF3/IRF3 ratio,0.429 and 0.729 and 0.532
CCc1cnc(N2CCC(c3nc(COc4ccc(-n5cnnn5)cc4)cs3)CC2)nc1,HEK-293T,"RNA-seq GSEA, refers to: HALLMARK_INTERFERON_ALPHA_RESPONSE",,concentration not given,direction not given,normalized enrichment score,-1.4
CC(C)NCC(O)c1ccc(O)c(O)c1 (stereo not shown),,,"ventricular cardiomyocytes, C57BL/6 mouse","dose not given, 0.104 s",,sarcomere length,1.72 µm
CCCC(=O)Oc1c(C)c(O)c(C(=O)/C=C/c2ccccc2)c(OC)c1C,SH-SY5Y,SRB,,,reference: normal over SH-SY5Y IC50,selectivity index,1.19

# A few entries again:
Compound,tested on,assay,test system,conditions,how to read,measurement,result
O=C(NCC1CCOCC1)c1ccc([C@H]2[C@@H](F)[C@@H](F)C[C@@H](F)[C@H]2F)cc1,,hepatocyte stability,cryopreserved mouse hepatocytes,1 µM,,hepatic clearance,31 mL/min/kg
O=C(Nc1ccc(C2CCCCC2)cc1)c1cn[nH]c1,,,cryopreserved rat hepatocytes,1 µM,,hepatic clearance,46 mL/min/kg
CC(C)C[C@H](NC(=O)C[C@H](O)[C@H](CC(C)C)NC(=O)[C@H](Cc1c[nH]cn1)NC(=O)CNC(=O)[C@@H](NC(=O)[C@H](C)NC(=O)[C@H](Cc1c[nH]c2ccccc12)NC(=O)[C@H](CCC(N)=O)NC(=O)[C@@H](Cc1ccccc1)NC(=O)COCCOCCNC(=O)CCC(C(=O)O)N1CCN(CC(=O)O)CCN(CC(=O)O)CCN(CC(=O)O)CC1)C(C)C)C(N)=O (stereo partly shown) [lutetium-177 labelled],,,"female BALB/c nu/nu mice, spleen","intravenous, 100 pmol, 24 h, added: PA 300 µg",,tissue uptake,0.03 ± 0.01 %ID/g
Nc1cccc2c1C(=O)N(C1CCC(=O)NC1=O)C2=O (stereo not shown),RPMI-8226,"flow cytometry, refers to: CD275",,concentration not given,reference: comparator compound alone,surface marker level,155%
